# Results pooled from the literature.
# Lines come from different studies, so protocols differ. Several values in a cell are separate wells, animals, samples, runs or records. Numbers after ± are the reported error.
# Organism: Escherichia coli
SMILES,test,system,setting,scale,endpoint,value
N=C(N)c1ccc(/N=N/Nc2ccc(C(=N)N)cc2)cc1,"bacterial growth, inhibitor, OD600",M1/5,,,MIC90,82.8 µM
CCN1CCN(c2cc3c(cc2F)c(=O)c(C(=O)O)cn3C2CC2)CC1,,CGMCC 1.9,"concentration not given, 18 h, 37 °C",,inhibition zone diameter,14.5 mm
N=C(N)c1ccc(OCCCCCCCCCCCOc2ccc(C(=N)N)cc2)cc1,,BW25113,"concentration not given, lowest-FICI combination, together with: erythromycin",,MIC in combination,6.25 µg/mL
N[C@@H](CO)C(=O)O,"chemotactic response, attractant, FRET",,,,EC50,0.4 µM
N=C(N)c1cccc(OCCCCCOc2cccc(C(=N)N)c2)c1,,BW25113,"concentration not given, lowest-FICI combination, together with: rifampicin",,MIC in combination,100 µg/mL
CO/N=C(\C(=O)N[C@@H]1C(=O)N2C(C(=O)O)=C(COC(C)=O)CS[C@H]12)c1csc(N)n1,,CGMCC 1.9,"concentration not given, 18 h, 37 °C",,inhibition zone diameter,12 mm
N=C(N)c1ccc(OCCCOc2ccc(C(=N)N)cc2)cc1,,BW25113,"concentration not given, lowest-FICI combination, together with: rifampicin",,MIC in combination,100 µg/mL
COC[C@H]1O[C@@H]2O[C@@H]3[C@@H](OC)[C@@H](OC)[C@@H](O[C@@H]4[C@@H](OC)[C@@H](OC)[C@@H](O[C@@H]5[C@@H](OC)[C@@H](OC)[C@@H](O[C@@H]6[C@@H](OC)[C@@H](OC)[C@@H](O[C@@H]7[C@@H](OC)[C@@H](OC)[C@@H](O[C@@H]1[C@@H](OC)[C@H]2OC)O[C@@H]7COC)O[C@@H]6COC)O[C@@H]5COC)O[C@@H]4COC)O[C@@H]3COC,"LuxR reporter, agonist",DH5α sensor strain,1 µM,,bioluminescence,771 ± 26 RLU
CN[C@H](CC(C)C)C(=O)N[C@H]1C(=O)N[C@@H](CC(N)=O)C(=O)N[C@H]2C(=O)N[C@H]3C(=O)N[C@H](C(=O)N[C@H](C(=O)O)c4cc(O)cc(O)c4-c4cc3ccc4O)[C@H](O)c3ccc(c(Cl)c3)Oc3cc2cc(c3O[C@@H]2O[C@H](CO)[C@@H](O)[C@H](O)[C@H]2O[C@H]2C[C@](C)(N)[C@H](O)[C@H](C)O2)Oc2ccc(cc2Cl)[C@H]1O,,ATCC 25922,64 µg per disk,,inhibition zone diameter,9 mm
CN(C)[C@@H]1C(O)=C(C(N)=O)C(=O)[C@@]2(O)C(O)=C3C(=O)c4c(O)cccc4[C@@](C)(O)[C@H]3C[C@@H]12,,CGMCC 1.9,"concentration not given, 18 h, 37 °C",,inhibition zone diameter,0 mm
N=C(N)c1ccc(OCc2ccc3ccc(COc4ccc(C(=N)N)cc4)cc3c2)cc1,,BW25113,"concentration not given, lowest-FICI combination, together with: rifampicin",,MIC in combination,3.13 µg/mL
CSCC[C@H](N)C(=O)O,chemotaxis pathway activity,MG1655,,,EC50,> 1000 µM
[Cl][Fe]([Cl])[Cl],,,"24 h, 37 °C",,MBC,> 1600 µM
N#Cc1c(-c2ccc(OCc3ccccc3)cc2)c(C(N)=O)c(N)n(N)c1=O,time-kill,,"1 x MIC, 180 min, 3 h",,viable count,0 CFU
O=C1C(Cl)=C(n2ccnc2)C(=O)c2ccccc21,,MTCC 405,10 µg/mL,,zone of inhibition,11 mm
N=C(N)c1cccc(OCc2cccc(COc3cccc(C(=N)N)c3)c2)c1,checkerboard,BW25113,"concentration not given, lowest-FICI combination, together with: rifampicin",,MIC of compound in combination,50 µg/mL
Cc1c(CN(C)C(=O)/C=C/c2cnc3c(c2)CC(NC(=O)OC(C)(C)C)C(=O)N3)oc2ccccc12 (stereo not drawn),broth microdilution,AR-0137,,,MIC,> 32 µg/mL
N[C@@H](CCC(=O)O)C(=O)O,"chemotaxis pathway, FRET",MG1655,,,EC50,102 µM
O=C1C(Cl)=C(n2cncn2)C(=O)c2ccccc21,,MTCC 405,10 µg/mL,,zone of inhibition,17 mm
COC(=O)[C@H]1[C@H]2C[C@@H]3c4[nH]c5cc(OC)ccc5c4CCN3C[C@H]2C[C@@H](OC(=O)c2cc(OC)c(OC)c(OC)c2)[C@@H]1OC,checkerboard,tetracycline-resistant (pBR322),"128 µM, together with: tetracycline",,tetracycline MIC,225 µM
C[C@@H](O)[C@H]1C(=O)N2C(C(=O)O)=C(S[C@@H]3CN[C@H](C(=O)N(C)C)C3)[C@H](C)[C@H]12,,"ATCC 25922, mice, meningitis, brain",dose not given,,bacterial load,5.84 log CFU/brain and 4.6 log CFU/brain and 4.22 log CFU/brain and 5.16 log CFU/brain and 4.12 log CFU/brain and 3.82 log CFU/brain
COC[C@H]1O[C@@H]2O[C@H]3[C@H](OC)[C@@H](OC)[C@@H](O[C@H]4[C@H](OC)[C@@H](OC)[C@@H](O[C@H]5[C@H](OC)[C@@H](OC)[C@@H](O[C@H]6[C@H](OC)[C@@H](OC)[C@@H](O[C@H]7[C@H](OC)[C@@H](OC)[C@@H](O[C@H]8[C@H](OC)[C@@H](OC)[C@@H](O[C@H]1[C@H](OC)[C@H]2OC)O[C@@H]8COC)O[C@@H]7COC)O[C@@H]6COC)O[C@@H]5COC)O[C@@H]4COC)O[C@@H]3COC,"LuxR reporter, agonist",DH5α sensor strain,40 µM,,bioluminescence,889 ± 20 RLU
C[C@H]1COc2c(N3CCN(C)CC3)c(F)cc3c(=O)c(C(=O)O)cn1c23,,ATCC 25922,,baseline: 5% CO2 over ambient air,MIC fold shift,2
NCC(=O)O,"chemotactic response, attractant, FRET",,,,EC50,93.4 µM
CN[C@H](CC(C)C)C(=O)N[C@H]1C(=O)N[C@@H](CC(N)=O)C(=O)N[C@H]2C(=O)N[C@H]3C(=O)N[C@H](C(=O)N[C@H](C(=O)O)c4cc(O)cc(O)c4-c4cc3ccc4O)[C@H](O)c3ccc(c(Cl)c3)Oc3cc2cc(c3O[C@@H]2O[C@H](CO)[C@@H](O)[C@H](O)[C@H]2O[C@H]2C[C@](C)(N)[C@H](O)[C@H](C)O2)Oc2ccc(cc2Cl)[C@H]1O,,ATCC BAA-1025,,,MBC,125 µg/mL
O=[N+]([O-])c1ccc(O)c2ncccc12,"bacterial growth, OD600",UAMS-1,,,IC50,1.93 ± 0.15 µM
CNC(C)C1CCC(N)C(OC2C(N)CC(N)C(OC3OCC(C)(O)C(NC)C3O)C2O)O1 (stereo not drawn),,CGMCC 1.9,"concentration not given, 18 h, 37 °C",,inhibition zone diameter,0 mm
CN[C@@H]1[C@@H](O[C@H]2O[C@H](CO)[C@@H](N)[C@H](O)[C@H]2O)OC2C[C@@H](N)[C@@H](O[C@H]3[C@H](O)[C@@H](O)[C@H](N)C[C@@H]3N)OC2[C@@H]1O (stereo partly drawn),,ATCC 25922,,baseline: 5% CO2 over ambient air,MIC fold shift,2
CC(=O)Oc1ccc(-c2c(C(N)=O)c(N)n(N)c(=O)c2C#N)cc1,time-kill,,"1 x MIC, 180 min, 3 h",,viable count,0 CFU
C[C@@H](O)[C@H]1C(=O)N2C(C(=O)O)=C(SCCN=CN)C[C@H]12,,"ATCC 25922, female ICR mice, wound infection, full-thickness wound",dose not given,,bacterial load,6.68 log CFU/g and 6.9 log CFU/g and 6.79 log CFU/g and 6.6 log CFU/g and 6.83 log CFU/g
C#CCCCC(=O)NCC,"LuxR reporter, antagonist",DH5α sensor strain,"100 µM, together with: OHHL 200 nM",,inhibition,3 ± 6%
CC[C@H]1OC(=O)[C@H](C)[C@@H](O[C@H]2C[C@@](C)(OC)[C@@H](O)[C@H](C)O2)[C@H](C)[C@@H](O[C@@H]2O[C@H](C)C[C@H](N(C)C)[C@H]2O)[C@](C)(O)C[C@@H](C)C(=O)[C@H](C)[C@@H](O)[C@]1(C)O,,CGMCC 1.9,"concentration not given, 18 h, 37 °C",,inhibition zone diameter,0 mm
CC1=N/C(=C\c2cc(F)c(O)c(F)c2)C(=O)N1C,"cytoplasmic accumulation, flow cytometry",,,,saturating concentration,300 µM
N=C(N)c1ccc(OCCSCCOc2ccc(C(=N)N)cc2)cc1,,BW25113,"concentration not given, lowest-FICI combination, together with: erythromycin",,MIC in combination,50 µg/mL
O=c1c2cc(Cl)ccc2[nH]c(=S)n1Cc1cccnc1,,uropathogenic,,,MIC90,> 100 µM
CC(C)Oc1c(NC(=O)c2ccc(NC(=O)[C@H](CC(N)=O)NC(=O)c3ccc(NC(=O)c4ccc(C#N)cc4)cc3)cc2)ccc(C(=O)Nc2ccc(C(=O)O)cc2)c1O,,"ATCC 25922, neutropenic mouse thigh infection","intravenous, 20 mg/kg/day, 5 mg/kg/dose",baseline: vehicle,bacterial burden reduction,3.97 log10 CFU/g
Nc1ccc2c(c1)B(O)OC2,,ATCC 25922,"1xMIC, 1 h",,post-antibiotic effect,0.52 ± 0.11 h
NC(=O)C[C@H](N)C(=O)O,"chemotaxis pathway, FRET",MG1655,,,EC50,15.6 µM
N=C(N)c1ccc(OCc2ccc(-c3ccccc3)cc2COc2ccc(C(=N)N)cc2)cc1,,ATCC 25922,"concentration not given, together with: rifampicin",,MIC in combination,3.13 µg/mL
Cc1ccc(C(C)C)c(OC2=C(Cl)C(=O)c3ccccc3C2=O)c1,,MTCC 405,10 µg/mL,,zone of inhibition,20 mm
OC[C@H]1O[C@@H]2O[C@H]3[C@H](O)[C@@H](O)[C@@H](O[C@H]4[C@H](O)[C@@H](O)[C@@H](O[C@H]5[C@H](O)[C@@H](O)[C@@H](O[C@H]6[C@H](O)[C@@H](O)[C@@H](O[C@H]7[C@H](O)[C@@H](O)[C@@H](O[C@H]8[C@H](O)[C@@H](O)[C@@H](O[C@H]1[C@H](O)[C@H]2O)O[C@@H]8CO)O[C@@H]7CO)O[C@@H]6CO)O[C@@H]5CO)O[C@@H]4CO)O[C@@H]3CO,"LuxR reporter, antagonist",DH5α sensor strain,"4 µM, together with: OHHL 200 nM",,inhibition,-2 ± 6%
N=C(N)c1ccc(OCCCCCCCCCOc2ccc(C(=N)N)cc2)cc1,,BW25113,"concentration not given, lowest-FICI combination, together with: rifampicin",,MIC in combination,3.13 µg/mL

# Repeated from above:
SMILES,test,system,setting,scale,endpoint,value
CN[C@H](CC(C)C)C(=O)N[C@H]1C(=O)N[C@@H](CC(N)=O)C(=O)N[C@H]2C(=O)N[C@H]3C(=O)N[C@H](C(=O)N[C@H](C(=O)O)c4cc(O)cc(O)c4-c4cc3ccc4O)[C@H](O)c3ccc(c(Cl)c3)Oc3cc2cc(c3O[C@@H]2O[C@H](CO)[C@@H](O)[C@H](O)[C@H]2O[C@H]2C[C@](C)(N)[C@H](O)[C@H](C)O2)Oc2ccc(cc2Cl)[C@H]1O,,ATCC BAA-1025,,,MBC,125 µg/mL
CCN1CCN(c2cc3c(cc2F)c(=O)c(C(=O)O)cn3C2CC2)CC1,,CGMCC 1.9,"concentration not given, 18 h, 37 °C",,inhibition zone diameter,14.5 mm
NC(=O)C[C@H](N)C(=O)O,"chemotaxis pathway, FRET",MG1655,,,EC50,15.6 µM
CN[C@H](CC(C)C)C(=O)N[C@H]1C(=O)N[C@@H](CC(N)=O)C(=O)N[C@H]2C(=O)N[C@H]3C(=O)N[C@H](C(=O)N[C@H](C(=O)O)c4cc(O)cc(O)c4-c4cc3ccc4O)[C@H](O)c3ccc(c(Cl)c3)Oc3cc2cc(c3O[C@@H]2O[C@H](CO)[C@@H](O)[C@H](O)[C@H]2O[C@H]2C[C@](C)(N)[C@H](O)[C@H](C)O2)Oc2ccc(cc2Cl)[C@H]1O,,ATCC 25922,64 µg per disk,,inhibition zone diameter,9 mm
NCC(=O)O,"chemotactic response, attractant, FRET",,,,EC50,93.4 µM
[Cl][Fe]([Cl])[Cl],,,"24 h, 37 °C",,MBC,> 1600 µM
